Experimental data of several laboratories.
Each line is one published result; not all experiments were run side by side.
Organism: Escherichia coli

With `C[C@@H](O)[C@H]1C(=O)N2C(C(=O)O)=C(S[C@@H]3CN[C@H](C(=O)N(C)C)C3)[C@H](C)[C@H]12` the MIC was 3.12 µM (microbial growth, broth dilution; ATCC25922).
For `COc1ccc2ccc3c(c2c1)C=[N+]1C2CCCCC2[N+]2=Cc4cccc(OC)c4[O][Au-]21[O]3.F[P-](F)(F)(F)(F)F` (centres unmarked), the MIC was 20 µM (bacterial growth, broth microdilution; carbapenem-resistant; 24 h).
`CC1OCC2OC(OC3C(N)CC(N)C(O)C3OC3OC(CO)C(OC4OC(CN)C(O)C(O)C4N)C3O)C(N)C(O)C2O1` (centres unmarked) has an MIC of greater than 128 µg/mL (broth microdilution; clinical isolate AG 001).
`CC(C)C(O)C(NC(=O)[C@H](Cc1ccc(O)cc1)NC(=O)C(Cc1ccc(O)c(Cl)c1)[N+](C)(C)C)C(=O)N[C@@H](C)C(=O)O` (some centres unmarked) gave an MIC of greater than 100 µM (ATCC 25922).
`CCCCN1C(=O)/C(=N\NC(=N)N)c2cc(C)ccc21` gave an MIC of 96 µg/mL (microbial growth, broth dilution; 18 h).
With `COCO[C@H]1[C@H](O)[C@@H](N)[C@@H](O[C@H]2[C@H](O[C@@H]3O[C@H](CO)[C@@H](O[C@H]4O[C@@H](CN)[C@@H](O)[C@H](O)[C@H]4N)[C@H]3O)[C@@H](O)[C@H](N)C[C@@H]2N)O[C@@H]1CO` the MIC was 32 to 64 µg/mL (broth microdilution; clinical isolate AG 002).
For `NC(=O)C1COC(=O)N1/N=C/c1ccc([N+](=O)[O-])o1` (centres unmarked), the MIC was 25 µg/mL (microbial growth, broth dilution; ATCC25922; 18 h).
`COc1ccc(-c2csc(N/N=C(\C)c3ccc4c(c3)sc3nc(=O)c(C#N)cn34)n2)cc1` has an MIC of less than 39 µg/mL (broth microdilution).
`COc1ccc2c(oc3c4ccc(O)cc4oc(=O)c23)c1CC=C(C)C` gave an MIC of 128 µg/mL (TISTR 780).
`COc1ccc2ccc3c(c2c1)C=[N+]1C2CCCCC2[N+]2=Cc4cccc(C)c4[O][Au-]21[O]3.F[P-](F)(F)(F)(F)F` (centres unmarked) gave an MIC of 20 µM (bacterial growth, broth microdilution; carbapenem-resistant; 24 h).
`C/C(=N\Nc1nc(-c2ccccc2)cs1)c1ccc2c(c1)sc1nc(=O)c(C#N)cn12` has an MIC of less than 36 µg/mL (broth microdilution).
For `C[n+]1ccc(/C=C2\Sc3ccccc3N2CCCN2CCCC2)c2ccccc21`, the MIC was 4 µg/mL (microbial growth, broth dilution; ATCC25922).
For `c1ccc(CN2CCOCCOCCN(CCCCCCCCCCCCCCN3CCOCCOCCN(CCCCCCCCCCCCCCN4CCOCCOCCN(Cc5ccccc5)CCOCCOCC4)CCOCCOCC3)CCOCCOCC2)cc1`, the MIC was 3 µM (microbial growth).
`NCC1OC(OC2C(N)CC(N)C(OC3OC(CO)C(O)C(N)C3O)C2OCCCCCCCCCCCCn2cc(CNc3nc(NCc4cn(CCCCCCCCCCCCOC5C(OC6OC(CN)C(O)CC6N)C(N)CC(N)C5OC5OC(CO)C(O)C(N)C5O)nn4)nc(NCc4cn(CCCCCCCCCCCCOC5C(OC6OC(CN)C(O)CC6N)C(N)CC(N)C5OC5OC(CO)C(O)C(N)C5O)nn4)n3)nn2)C(N)CC1O` (centres unmarked) has an MIC of 128 µg/mL (microbial growth, broth dilution; ATCC25922).
`COc1ccc2c(c1)C=[N+]1C3CCCCC3[N+]3=Cc4c(ccc5ccc(OC)cc45)[O][Au-]13[O]2.F[P-](F)(F)(F)(F)F` (centres unmarked) gave an MIC of greater than 20 µM (bacterial growth, broth microdilution; carbapenem-resistant clinical isolate; 24 h).
For `N=C(N)NCCC[C@@H]1NC(=O)[C@H](CCCNC(=N)N)NC(=O)[C@H](CCCNC(=N)N)NC(=O)[C@H](Cc2c[nH]c3ccccc23)NC(=O)[C@H](Cc2c[nH]c3ccccc23)NC(=O)[C@H](Cc2c[nH]c3ccccc23)NC(=O)[C@H](Cc2c[nH]c3ccccc23)NC(=O)[C@H](CCCNC(=N)N)NC1=O`, the MIC was 16 µg/mL (broth microdilution; ATCC 35218).
With `CCn1cc(C(=O)NCCNCCO)c(=O)c2cc(OC)c(OCc3cccc(F)c3)cc21` the MIC was less than 0.25 µg/mL (ATCC 25922; ≥80% growth inhibition).
`CC(C)CCCCC(=O)N[C@@H](CCN)C(=O)N[C@H](C(=O)N[C@@H](CCN)C(=O)N[C@H]1CCNC(=O)[C@H]([C@@H](C)O)NC(=O)[C@H](CCN)NC(=O)[C@H](CCN)NC(=O)[C@H](CC(C)C)NC(=O)[C@@H](Cc2ccccc2)NC(=O)[C@H](CCN)NC1=O)[C@@H](C)O` has an MIC of 0.25 µg/mL (broth microdilution; W3110; 37 °C).
The MIC of `CO[C@H]1[C@H](O)[C@@H](N)[C@@H](O[C@H]2[C@H](O[C@@H]3O[C@H](CO)[C@@H](O[C@H]4O[C@@H](CN)[C@@H](O)[C@H](O)[C@H]4N)[C@H]3O)[C@@H](O)[C@H](N)C[C@@H]2N)O[C@@H]1CO` is reported as greater than 128 µg/mL (broth microdilution; clinical isolate AG 001).
For `CC(C)C1=CC2=CCC3C(C)(C(=O)OCCC[N+](C)(C)C)CCCC3(C)C2CC1` (centres unmarked), the MIC was 15.6 µg/mL (microbial growth, broth dilution; ATCC25922; 16 h).
With `CCCCCCCCCCN1C(=O)/C(=N\NC(N)=S)c2cc(C)ccc21` the MIC was greater than 192 µg/mL (broth microdilution; 25922; 18 h, 37 °C).
`COc1cc(OC)c2c(c1)C(=O)c1cc3oc(=O)cc(-c4ccc(Cl)cc4)c3c(O)c1C2=O` has an MIC of 32 µg/mL (microbial growth).
With `C=CCC1COC(=O)N1/N=C/c1ccc([N+](=O)[O-])o1` (centres unmarked) the MIC was greater than 50 µg/mL (microbial growth, broth dilution; ATCC25922; 18 h).
The MIC of `CC1(C)S[C@@H]2[C@H](NC(=O)[C@H](N)c3ccccc3)C(=O)N2[C@H]1C(=O)O` is reported as 3.12 µM.
`COc1ccc2ccc3c(c2c1)C=[N+]1C2CCCCC2[N+]2=Cc4ccccc4[O][Au-]21[O]3.F[P-](F)(F)(F)(F)F` (centres unmarked) has an MIC of greater than 20 µM (bacterial growth, broth microdilution; carbapenem-resistant clinical isolate; 24 h).
`N#Cc1ccc2cccc(O)c2n1` has an MIC of 1500 µM (microbial growth, agar dilution; ATCC25922).
With `Cc1[nH]c(=O)c(CNC(=O)c2ccc(C(F)(F)F)nc2)c2c1CCCC2` the MIC was greater than 128 µg/mL (agar double dilution; ESBL clinical isolate).
For `CC(=NNC(=N)N)c1nnn(-c2ccc(C#CC3(O)CCCCC3)cc2)c1C`, the MIC was 3.9 µg/mL (microbial growth; ATCC25922).
The MIC of `O=C1c2ccccc2C(=O)c2c1ccc1c2C(C(=O)Nc2ccccc2Cl)C(=O)C1c1ccccc1` (centres unmarked) is reported as 64 µg/mL (microbial growth).

A few entries again:
The MIC of `CO[C@H]1[C@H](O)[C@@H](N)[C@@H](O[C@H]2[C@H](O[C@@H]3O[C@H](CO)[C@@H](O[C@H]4O[C@@H](CN)[C@@H](O)[C@H](O)[C@H]4N)[C@H]3O)[C@@H](O)[C@H](N)C[C@@H]2N)O[C@@H]1CO` is reported as greater than 128 µg/mL (broth microdilution; clinical isolate AG 001).
With `C=CCC1COC(=O)N1/N=C/c1ccc([N+](=O)[O-])o1` (centres unmarked) the MIC was greater than 50 µg/mL (microbial growth, broth dilution; ATCC25922; 18 h).
`COc1ccc2ccc3c(c2c1)C=[N+]1C2CCCCC2[N+]2=Cc4cccc(C)c4[O][Au-]21[O]3.F[P-](F)(F)(F)(F)F` (centres unmarked) gave an MIC of 20 µM (bacterial growth, broth microdilution; carbapenem-resistant; 24 h).
For `NC(=O)C1COC(=O)N1/N=C/c1ccc([N+](=O)[O-])o1` (centres unmarked), the MIC was 25 µg/mL (microbial growth, broth dilution; ATCC25922; 18 h).
